Results of several laboratories.
Each line is one published result; not all experiments were run side by side. ± marks the error that the study gave.
P2RX4: P2X purinoceptor 4 (P2RX4, Homo sapiens, UniProt Q99571)
UniProt Q99571, sequence (whole entry, looked up): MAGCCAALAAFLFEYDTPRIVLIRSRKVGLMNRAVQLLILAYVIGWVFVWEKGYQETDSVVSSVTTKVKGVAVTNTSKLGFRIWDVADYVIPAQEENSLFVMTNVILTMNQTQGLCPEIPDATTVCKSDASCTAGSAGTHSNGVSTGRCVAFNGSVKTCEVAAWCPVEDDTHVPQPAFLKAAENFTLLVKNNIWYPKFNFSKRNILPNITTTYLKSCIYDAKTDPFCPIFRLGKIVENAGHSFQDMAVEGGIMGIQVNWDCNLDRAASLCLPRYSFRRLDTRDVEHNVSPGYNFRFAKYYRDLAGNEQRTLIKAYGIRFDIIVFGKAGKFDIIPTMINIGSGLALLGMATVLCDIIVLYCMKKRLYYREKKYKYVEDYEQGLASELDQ
Proteasome subunit beta type-9: Proteasome subunit beta type-9 (Homo sapiens, UniProt P28065)
UniProt P28065, sequence (whole entry, looked up): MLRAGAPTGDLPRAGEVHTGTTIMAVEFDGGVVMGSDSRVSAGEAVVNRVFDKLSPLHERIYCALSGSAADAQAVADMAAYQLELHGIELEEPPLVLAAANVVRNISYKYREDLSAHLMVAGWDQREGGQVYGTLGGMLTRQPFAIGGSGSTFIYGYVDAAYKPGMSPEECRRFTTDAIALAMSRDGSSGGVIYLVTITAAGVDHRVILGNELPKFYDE
SRC: Proto-oncogene tyrosine-protein kinase Src (SRC, Homo sapiens, UniProt P12931)
SLC22A11: Solute carrier family 22 member 11 (SLC22A11, Homo sapiens, UniProt Q9NSA0)
UniProt Q9NSA0, sequence (whole entry, looked up): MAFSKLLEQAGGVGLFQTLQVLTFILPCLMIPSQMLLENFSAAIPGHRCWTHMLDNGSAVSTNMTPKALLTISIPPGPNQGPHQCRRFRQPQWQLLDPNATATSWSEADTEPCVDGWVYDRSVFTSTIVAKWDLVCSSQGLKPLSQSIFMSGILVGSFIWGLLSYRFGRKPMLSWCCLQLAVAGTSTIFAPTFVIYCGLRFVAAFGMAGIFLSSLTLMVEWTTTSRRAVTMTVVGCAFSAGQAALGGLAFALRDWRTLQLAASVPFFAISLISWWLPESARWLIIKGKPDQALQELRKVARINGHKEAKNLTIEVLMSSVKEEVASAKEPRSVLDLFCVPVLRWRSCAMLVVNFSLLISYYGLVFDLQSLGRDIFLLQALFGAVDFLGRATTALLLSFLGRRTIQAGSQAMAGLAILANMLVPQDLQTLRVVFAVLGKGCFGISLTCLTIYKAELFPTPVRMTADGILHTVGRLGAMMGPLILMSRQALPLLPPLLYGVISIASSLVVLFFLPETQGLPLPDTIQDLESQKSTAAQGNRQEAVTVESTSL
Probable G-protein coupled receptor 34: Probable G-protein coupled receptor 34 (Homo sapiens, UniProt Q9UPC5)
UniProt Q9UPC5, sequence (whole entry, looked up): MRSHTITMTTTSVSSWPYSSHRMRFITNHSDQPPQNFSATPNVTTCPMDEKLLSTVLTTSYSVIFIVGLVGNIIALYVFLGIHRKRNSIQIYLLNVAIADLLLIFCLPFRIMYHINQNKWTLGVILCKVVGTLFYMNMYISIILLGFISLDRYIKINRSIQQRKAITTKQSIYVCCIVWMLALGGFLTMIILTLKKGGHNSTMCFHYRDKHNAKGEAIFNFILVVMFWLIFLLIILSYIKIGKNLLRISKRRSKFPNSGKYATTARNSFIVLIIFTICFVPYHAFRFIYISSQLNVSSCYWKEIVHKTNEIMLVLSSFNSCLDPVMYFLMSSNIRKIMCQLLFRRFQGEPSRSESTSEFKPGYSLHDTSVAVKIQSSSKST
pyrD: Dihydroorotate dehydrogenase (quinone) (pyrD, Acinetobacter baumannii, UniProt B7GZW7)
UniProt Q9NPD5, sequence (whole entry, unmodified, looked up): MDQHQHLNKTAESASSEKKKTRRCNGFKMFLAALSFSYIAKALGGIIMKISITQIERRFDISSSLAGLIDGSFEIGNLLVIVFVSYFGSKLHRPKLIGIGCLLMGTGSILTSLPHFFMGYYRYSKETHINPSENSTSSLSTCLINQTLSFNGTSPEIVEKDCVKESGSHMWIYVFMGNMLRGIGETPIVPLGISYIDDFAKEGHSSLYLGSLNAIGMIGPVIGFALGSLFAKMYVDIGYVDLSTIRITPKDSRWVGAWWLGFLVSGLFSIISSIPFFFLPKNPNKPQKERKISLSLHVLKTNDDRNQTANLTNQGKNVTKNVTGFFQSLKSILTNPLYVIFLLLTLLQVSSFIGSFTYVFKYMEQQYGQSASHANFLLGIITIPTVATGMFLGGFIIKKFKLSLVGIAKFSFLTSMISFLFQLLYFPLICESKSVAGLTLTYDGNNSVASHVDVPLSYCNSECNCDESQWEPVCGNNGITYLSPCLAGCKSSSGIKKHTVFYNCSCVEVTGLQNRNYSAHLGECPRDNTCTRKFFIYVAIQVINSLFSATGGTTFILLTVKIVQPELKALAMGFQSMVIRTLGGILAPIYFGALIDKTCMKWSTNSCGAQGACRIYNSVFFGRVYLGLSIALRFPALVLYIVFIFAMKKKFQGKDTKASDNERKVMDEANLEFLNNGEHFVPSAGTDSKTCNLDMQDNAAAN
UniProt Q8IWT6, sequence (whole entry, looked up): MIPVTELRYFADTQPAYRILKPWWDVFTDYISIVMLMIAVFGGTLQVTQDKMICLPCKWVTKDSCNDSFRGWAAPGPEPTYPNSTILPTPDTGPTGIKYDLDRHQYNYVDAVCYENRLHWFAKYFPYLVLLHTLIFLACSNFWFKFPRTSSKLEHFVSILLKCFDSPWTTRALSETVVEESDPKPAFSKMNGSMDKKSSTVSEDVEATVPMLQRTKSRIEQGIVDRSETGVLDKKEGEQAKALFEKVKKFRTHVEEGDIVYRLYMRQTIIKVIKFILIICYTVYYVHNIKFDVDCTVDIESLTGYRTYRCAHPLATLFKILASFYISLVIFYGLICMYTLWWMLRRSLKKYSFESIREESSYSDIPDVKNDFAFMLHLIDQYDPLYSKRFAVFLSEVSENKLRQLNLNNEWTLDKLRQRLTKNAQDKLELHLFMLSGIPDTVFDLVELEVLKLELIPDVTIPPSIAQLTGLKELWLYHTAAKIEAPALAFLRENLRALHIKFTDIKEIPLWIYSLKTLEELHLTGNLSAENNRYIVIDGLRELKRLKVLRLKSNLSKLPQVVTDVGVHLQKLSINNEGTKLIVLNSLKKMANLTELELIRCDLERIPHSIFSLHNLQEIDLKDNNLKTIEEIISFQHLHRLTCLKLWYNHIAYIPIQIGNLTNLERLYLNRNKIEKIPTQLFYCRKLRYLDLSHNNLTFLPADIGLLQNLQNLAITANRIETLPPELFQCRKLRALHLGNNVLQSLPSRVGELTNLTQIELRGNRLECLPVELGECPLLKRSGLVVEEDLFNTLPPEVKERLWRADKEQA
UniProt B7GZW7, sequence (whole entry, looked up): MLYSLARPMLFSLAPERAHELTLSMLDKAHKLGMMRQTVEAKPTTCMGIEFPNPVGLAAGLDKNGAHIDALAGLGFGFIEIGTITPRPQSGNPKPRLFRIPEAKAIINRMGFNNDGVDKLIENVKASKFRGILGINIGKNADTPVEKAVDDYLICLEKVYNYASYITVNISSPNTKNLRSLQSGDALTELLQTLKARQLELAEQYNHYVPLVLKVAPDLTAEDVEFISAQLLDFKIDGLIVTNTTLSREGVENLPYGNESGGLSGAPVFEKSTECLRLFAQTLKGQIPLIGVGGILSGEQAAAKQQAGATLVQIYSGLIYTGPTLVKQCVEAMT
UniProt O09061, sequence (whole entry, looked up): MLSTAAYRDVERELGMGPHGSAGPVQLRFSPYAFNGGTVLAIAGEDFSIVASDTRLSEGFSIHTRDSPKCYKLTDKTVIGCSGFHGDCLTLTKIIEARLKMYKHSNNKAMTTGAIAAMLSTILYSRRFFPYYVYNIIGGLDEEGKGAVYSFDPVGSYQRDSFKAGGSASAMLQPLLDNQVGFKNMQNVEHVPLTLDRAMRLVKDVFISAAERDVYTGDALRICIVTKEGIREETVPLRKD
UniProt Q8C6L5, sequence (whole entry, looked up): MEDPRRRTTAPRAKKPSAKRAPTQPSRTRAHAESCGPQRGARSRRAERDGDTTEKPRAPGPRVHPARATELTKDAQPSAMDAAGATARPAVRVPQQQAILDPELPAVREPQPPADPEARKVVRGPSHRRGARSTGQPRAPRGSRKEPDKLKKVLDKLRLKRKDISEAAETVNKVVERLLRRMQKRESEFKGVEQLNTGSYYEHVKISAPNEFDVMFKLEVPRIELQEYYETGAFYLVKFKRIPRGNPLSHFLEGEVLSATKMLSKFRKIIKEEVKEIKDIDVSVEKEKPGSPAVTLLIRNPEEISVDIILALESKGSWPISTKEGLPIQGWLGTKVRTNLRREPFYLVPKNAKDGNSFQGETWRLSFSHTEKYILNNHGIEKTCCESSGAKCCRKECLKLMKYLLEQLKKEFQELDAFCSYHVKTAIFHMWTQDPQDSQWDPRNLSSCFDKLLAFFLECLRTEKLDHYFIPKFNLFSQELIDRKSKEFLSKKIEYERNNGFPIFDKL
UniProt P28063, sequence (whole entry, looked up): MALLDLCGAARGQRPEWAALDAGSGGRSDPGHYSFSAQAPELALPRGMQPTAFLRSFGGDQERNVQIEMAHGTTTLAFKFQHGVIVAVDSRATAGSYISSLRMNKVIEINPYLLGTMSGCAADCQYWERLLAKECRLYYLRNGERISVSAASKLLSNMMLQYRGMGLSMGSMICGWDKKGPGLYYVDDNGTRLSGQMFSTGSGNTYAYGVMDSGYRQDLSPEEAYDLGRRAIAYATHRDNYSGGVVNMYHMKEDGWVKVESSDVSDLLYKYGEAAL

`CN1CCN(c2ccc(Nc3ncc4cc(C#N)c(=O)n(C5CCCC5)c4n3)cc2)CC1` gave an IC50 of 0.566 µM (Serine/threonine-protein kinase Chk1 (CHEK1, Homo sapiens, UniProt O14757)).
`Fc1ccc(N2CCNCC2CSc2ccccc2)cc1` (stereo not drawn) has an IC50 of 7.41 ± 3.55 µM (P2RX4; calcium flux, inhibitor, Ca2+ flux; human cells).
With `O=C(Nc1cccc2c(=O)cc(-c3nnn[nH]3)oc12)c1ccc(OCCCCc2ccccc2)cc1` the IC50 was 11.8 µM (LRRC8A/LRRC8C (Homo sapiens, UniProt Q8IWT6+Q8TDW0); ion current, inhibitor, whole-cell patch clamp; HCT116 LRRC8 knockout, transfected; -100 mV, LRRC8A/LRRC8C heteromer).
`CC(C)(C)c1ccc(N2CCNCC2COc2ccc3c(c2)OCO3)cc1` (stereo not drawn) has an IC50 of 3.89 ± 0.93 µM (P2RX4; calcium flux, inhibitor, Ca2+ flux; human cells).
`CN(Cc1cnc2nc(N)nc(N)c2n1)c1ccc(C(=O)N[C@@H](CCC(=O)O)C(=O)O)cc1` has an IC50 of greater than 100 µM (Solute carrier organic anion transporter family member 1B3 (SLCO1B3, Homo sapiens, UniProt Q9NPD5, M233I/S112A); estradiol glucuronide uptake, inhibitor; SLCO1B3-expressing cells; 2 min, together with: 1 µM [3H]estradiol glucuronide).
For `COc1ccc2c(c1)CN(C(=O)CCN1CCC(Cc3ccccc3)CC1)CC[S@@+]2[O-]`, the IC50 was 17.5 µM (Kir3.1/Kir3.4 (Homo sapiens, UniProt P48544+P48549); GIRK current, inhibitor, whole-cell patch clamp; stable cell line).
The IC50 of `Cc1ncc(C(=O)N[C@@H](CC(C)C)C(=O)N[C@@H](CC(C)C)C(=O)N[C@H](/C=C/S(C)(=O)=O)Cc2ccc(CN)cc2)s1` is reported as greater than 10 µM (Proteasome subunit beta type-9; competitive ABPP; Raji cell lysate).
`COc1cc2nccc(Oc3ccc(NC(=O)c4cc5c(n(-c6ccccc6)c4=O)CCCC5=O)nc3)c2cc1OC` has an IC50 of 0.0087 µM (Tyrosine-protein kinase receptor TYRO3 (TYRO3, Homo sapiens, UniProt Q06418); cell viability, CellTiter-Glo; Ba/F3 expressing recombinant kinase; 48 h).
`C[C@H]1CN(C2COC2)CCN1c1ccc(Nc2cc(-c3ccnc(N4CCn5c(cc6c5CC(C)(C)C6)C4=O)c3CO)cn(C)c2=O)nc1` gave an IC50 of 1.16 µM (SRC).
`Cc1cnc(NC(=O)C2=C(O)c3ccccc3S(=O)(=O)N2C)s1` gave an IC50 of 158 ± 4.1 µM (SLC22A11; transport, inhibitor; CHO expressing hOAT4; 5 min, together with: [3H]estrone sulfate 14 nM).
`CN(C/C=C/C#CC(C)(C)C)Cc1cccc2ccccc12` gave an IC50 of 0.03 µM (Cytochrome P450 2D6 (CYP2D6, Homo sapiens, UniProt P10635); pH 7.4).
The IC50 of `CCn1c(-c2nc3cc(C(=O)N4CCC[C@@H](N)C4)cc(OC)c3n2C)cc2cccnc21` is reported as greater than 100 µM (Mu-type opioid receptor (OPRM1, Homo sapiens, UniProt P35372); antagonist, GTPγS binding).
`Cc1ccc(S(=O)(=O)/C=C/C#N)cc1` gave an IC50 of 1.7 µM (Ubiquitin carboxyl-terminal hydrolase 6 (USP6, Homo sapiens, UniProt P35125); enzyme activity, inhibitor, MALDI-TOF DUB; 35 min preincubation, 30 °C).
`CC1(C)CC[C@]2(C(=O)O)CC[C@]3(C)C(=CC[C@@H]4[C@@]5(C)C[C@@H](O)[C@H](OC(=O)/C=C/c6ccc(O)cc6)C(C)(C)[C@@H]5CC[C@]43C)[C@@H]2C1` (relative stereo) has an IC50 of 0.3 µM (Presenilin-1, in γ-secretase complex (PSEN1, Homo sapiens, UniProt P49768); Aβ42 production, inhibitor, cell-free γ-secretase; HeLa membranes; together with: APP-CTF substrate).
For `O=c1c(O)c(-c2ccc(O)c(O)c2)oc2cc(O)ccc12`, the IC50 was greater than 100 µM (Amine oxidase [flavin-containing] B (MAOB, Homo sapiens, UniProt P27338); enzyme activity, inhibitor; together with: kynuramine 50 µM).
For `c1cc(-c2nc3ccc(OCCCN4CCCC4)cc3o2)ccc1OCCCN1CCCC1`, the IC50 was greater than 10 µM (Probable G-protein coupled receptor 34; antagonist, Tango; together with: LysoPS 5 µM).
`O=C1CN(c2nc(=O)c3cc(C(F)(F)F)cc([N+](=O)[O-])c3s2)CCN1C1CCCC1` gave an IC50 of greater than 10 µM (Cytochrome P450 2C9 (CYP2C9, Homo sapiens, UniProt P11712); 60 (unit not given), pH 7.4).
`CCn1c(-c2nc3ccc(C(=O)N4CCCC(N)C4)cc3n2C)cc2ccccc21` (stereo not drawn) gave an IC50 of greater than 15.8 µM (Voltage-dependent L-type calcium channel subunit alpha-1C (CACNA1C, Homo sapiens, UniProt Q13936); antagonist, intracellular Ca2+ fluorescence; human cells).
With `CC(=O)OC1CC2CCC1(C)C2(C)C` (stereo not drawn) the IC50 was 13.3 ± 2.9 mg/mL (α-amylase).
The IC50 of `CCN(CC)CCCC(C)Nc1ccnc2cc(Cl)ccc12` (stereo not drawn) is reported as 40 µM (polyamine oxidase (rat); inhibitor; ischemic brain homogenate; together with: spermine).
For `COc1cc(/C=C/C(=O)CC(=O)/C=C/c2ccc(O)c(OC)c2)ccc1O`, the IC50 was greater than 75 µM (Superoxide dismutase [Cu-Zn], fully metallated (SOD1, Homo sapiens, UniProt P00441); enzyme activity, inhibitor, XTT).
For `Cc1ncc(C(=O)N[C@@H](CCC2CCCCC2)C(=O)N[C@@H](CC(C)C)C(=O)N[C@H](/C=C/S(C)(=O)=O)Cc2ccc(CN)cc2)s1`, the IC50 was greater than 10 µM (Proteasome subunit beta type-9; competitive ABPP; Raji cell lysate).
With `COc1c([C@H]2[C@H](C(=O)Nc3ccnc(C(N)=O)c3)O[C@@](C)(C(F)(F)F)[C@H]2C)ccc(F)c1F` the IC50 was 14 µM (Sodium-dependent dopamine transporter (SLC6A3, Homo sapiens, UniProt Q01959); functional activity, antagonist).
For `Cc1ncc(C(=O)N[C@@H](CC(C)C)C(=O)N[C@@H](CC2CCC3CCCCC3C2)C(=O)N[C@H](/C=C/S(C)(=O)=O)Cc2ccc(CN)cc2)s1` (stereo partly drawn), the IC50 was greater than 10 µM (Proteasome subunit beta type-9; competitive ABPP; Raji cell lysate).
`O=[N+]([O-])c1ccc(N2CCNCC2COc2ccc3c(c2)OCO3)cc1` (stereo not drawn) has an IC50 of greater than 10 µM (P2RX4; Ca2+ flux, antagonist; human cells expressing P2RX4; racemate tested).
The IC50 of `COc1cc2c(Nc3ccc(NC(=O)c4ccccc4)cc3)ncnc2cc1OCCCN1CCOCC1` is reported as greater than 10 µM (Probable G-protein coupled receptor 34; antagonist, Tango; together with: LysoPS 5 µM).
`Fc1ccc(N2CCNCC2COc2ccncc2)cc1` (stereo not drawn) has an IC50 of greater than 100 µM (P2RX4; calcium flux, inhibitor, Ca2+ flux; human cells).
`Cc1ncc(C(=O)N[C@H](C(=O)N[C@@H](CC(C)C)C(=O)N[C@H](/C=C/S(C)(=O)=O)Cc2ccc(CN)cc2)C2CCCCC2)s1` has an IC50 of greater than 10 µM (Proteasome subunit beta type-9; competitive ABPP; Raji cell lysate).
`CNc1cc[n+](CCNC(=O)c2ccn3c(-c4c(C)noc4C)cnc3c2)cc1` has an IC50 of 0.025 µM (Alpha-2B adrenergic receptor (Canis lupus familiaris, UniProt A0A8I3NDU8); enzyme activity, inhibitor, cell-based; dog).
The IC50 of `O=C(c1ccc(F)cc1)N1CCNCC1COc1ccc2c(c1)OCO2` (stereo not drawn) is reported as greater than 10 µM (P2RX4; calcium flux, inhibitor, Ca2+ flux; human cells).
For `C[C@@H]1[C@H](O)[C@@H](C)/C=C/C=C/C=C/C=C/C=C/C=C/C=C/[C@H](O[C@@H]2O[C@H](C)[C@@H](O)[C@H](N)[C@@H]2O)C[C@@H]2O[C@](O)(C[C@@H](O)C[C@@H](O)[C@H](O)CC[C@@H](O)C[C@@H](O)CC(=O)O[C@H]1C)C[C@H](O)[C@H]2C(=O)O`, the IC50 was 0.9 µM (Solute carrier organic anion transporter family member 1B3 (SLCO1B3, Homo sapiens, UniProt Q9NPD5); inhibitor).
With `Nc1nc(=O)n([C@H]2C[C@H](O)[C@@H](CO)O2)cc1CNC[C@H]1O[C@@H](n2cnc3c(N)ncnc32)[C@H](O)[C@@H]1O` the IC50 was greater than 100 µM (DNA (cytosine-5)-methyltransferase 1 (DNMT1, Homo sapiens, UniProt P26358); truncated enzyme, together with: 26 bp hemimethylated DNA, SAM 1 µM).
`COc1ccc(C(=O)Nc2ccc(-c3nc4ccccc4[nH]3)cc2)c(OC)c1` gave an IC50 of 1.6 µM (Moesin, with CD44 (Homo sapiens, UniProt P26038); MSN-CD44 binding, inhibitor, TR-FRET).
The IC50 of `Cc1oc(C)c(-c2ccc(N(CC(C)C)C3CCCCC3)c(NC(=O)Nc3ccccc3)c2)c1C(=O)O` is reported as 38 ± 6 µM (Indoleamine 2,3-dioxygenase 1 (IDO1, Homo sapiens, UniProt P14902); enzyme activity, inhibitor, recombinant enzyme, item: kynurenine; 20 min, 2% DMSO, together with: L-tryptophan).
The IC50 of `COc1ccc(N2CCNCC2COc2ccc3c(c2)OCO3)cc1` (stereo not drawn) is reported as 7.41 µM (P2RX4; Ca2+ flux, antagonist; human cells expressing P2RX4; racemate tested).
For `Cc1cc(Nc2ccc(S(F)(F)(F)(F)F)cc2)n2nc(C(F)(F)F)nc2n1`, the IC50 was 0.48 ± 0.32 µM (pyrD; enzyme activity, inhibitor, DCIP steady-state rate).
With `Cc1c(-c2ccccc2)oc2c(C(=O)O)cccc2c1=O` the IC50 was 18.5 µM (LRRC8A (Homo sapiens, UniProt Q8IWT6); hypotonicity-induced current; HEK293).
With `CC(C)C[C@H](NC(=O)[C@@H](O)[C@H](N)Cc1ccccc1)C(=O)O` the IC50 was 0.2 µM (rat aminopeptidase III; enzyme activity, inhibitor).
The IC50 of `CC#CC(=O)N1CCC[C@H]1c1nc(-c2ccc(C(=O)Nc3ccccn3)cc2)c2c(N)nccn12` is reported as greater than 5 µM (SRC).
The IC50 of `CN1CCC(CNc2ccc3ncc(-c4cccc(OC(F)(F)F)c4)n3n2)CC1` is reported as 2.97 µM (Neuronal acetylcholine receptor; alpha4/beta2 (Homo sapiens, UniProt P17787+P43681); ion channel function, blocker; top concentration 10 µM).
The IC50 of `COc1ccc(C[C@H](NC(=O)[C@H](C)NC(=O)CN2CCOCC2)C(=O)N[C@H](C(=O)[C@@]2(C)CO2)C2CCCCC2)cc1` is reported as greater than 10 µM (Proteasome subunit beta type-9; competitive ABPP; Raji cell lysate).
`Cc1cc(Nc2ccc(C(C)(C)C)c(F)c2)n2ncnc2n1` gave an IC50 of 0.35 ± 0.075 µM (pyrD; enzyme activity, inhibitor, DCIP steady-state rate).
With `O=C(Nc1ccc(F)cc1)N1CCNCC1COc1ccc2ccccc2c1` (stereo not drawn) the IC50 was 4.17 ± 0.13 µM (P2RX4; calcium flux, inhibitor, Ca2+ flux; human cells).
`CC(C)C[C@H](NC(=O)[C@H](CCc1ccccc1)NC(=O)CN1CCOCC1)C(=O)N[C@@H](Cc1ccccc1)C(=O)N[C@@H](CC(C)C)C(=O)[C@@]1(C)CO1` has an IC50 of 0.00683 ± 0.00096 µM (Proteasome subunit beta type-1/Psmb8, LMP7 subunit (Mus musculus, UniProt O09061+P28063); proteasome subunit activity; Ba/F3 BCR-ABL1 M351T; 1 h pulse).
For `CCCc1nc2c(C)cc(-c3nc4ccccc4n3C)cc2n1Cc1ccc(-c2ccccc2C(=O)O)cc1`, the IC50 was 30.7 ± 5 µM (SLC22A11; transport, inhibitor; CHO expressing hOAT4; 5 min, together with: [3H]estrone sulfate 14 nM).
`O=S(=O)(c1ccc(F)cc1)N1CCNCC1COc1ccc2ccccc2c1` (stereo not drawn) has an IC50 of 6.91 ± 0.2 µM (P2RX4; calcium flux, inhibitor, Ca2+ flux; human cells).
The IC50 of `Cc1nn(-c2nc3ccc(Cl)c(Cl)c3[nH]2)c(O)c1C1OC(=O)c2ccccc21` (stereo not drawn) is reported as 0.391 µM (Cyclic GMP-AMP synthase (Cgas, Mus musculus, UniProt Q8C6L5); enzyme activity, inhibitor, pyrophosphatase-coupled; mouse cGAS).
With `CC(C)C[C@H](NC(=O)[C@H](CC(C)C)NC(=O)[C@H](Cc1ccccc1)NC(=O)CN=[N+]=[N-])C(=O)N[C@H](/C=C/S(C)(=O)=O)Cc1ccc(CN)cc1` the IC50 was greater than 10 µM (Proteasome subunit beta type-9; competitive ABPP; Raji cell lysate).
With `CCC(=O)Nc1cccc(Oc2nc(Nc3ccc(N4CCN(C)CC4)cc3OC)ncc2Cl)c1` the IC50 was greater than 10 µM (Probable G-protein coupled receptor 34; antagonist, Tango; together with: LysoPS 5 µM).
`NCCOCCCN1CCN(c2ccc(-c3cncc(Cl)c3N3CCC4(CCNC4=O)CC3)cc2)CC1` has an IC50 of 0.001 ± 0.0001 µM (Cyclin-dependent kinase 8, with cyclin C (CDK8, Homo sapiens, UniProt P49336)).
With `CC[C@@H]1[C@H](F)C(=O)N[C@@H]1COc1nccc2cc(C(N)=O)c(OC)cc12` the IC50 was greater than 5 µM (Casein kinase I isoform alpha (CSNK1A1, Homo sapiens, UniProt P48729); ATP-site binding, ActivX KiNativ profiling; THP-1 cell lysate; Lys2 CK1a probe site).
